Assay results collected from several papers.
Compare with care: the assays were run in different laboratories. ± marks the error that the study gave.
Cell line: SK-MEL-28

| Structure (SMILES) | test | setting | scale | quantity | value |
| --- | --- | --- | --- | --- | --- |
| Cc1cccc(-c2cccc(C)n2)n1.Cc1cccc(-c2cccc(C)n2)n1.F[P-](F)(F)(F)(F)F.F[P-](F)(F)(F)(F)F.[Ru+2].c1ccc2c(-c3nc4c5cccnc5c5ncccc5c4[nH]3)c3ccccc3cc2c1 |  | 1% O2, added: blue light 453 nm, 100 J/cm2 | baseline: dark over light EC50 | phototoxicity index | 3 |
| Cc1ccc([N+](=O)[O-])cc1S(=O)(=O)N(C)/N=C/c1cnc2ccc(Br)cn12 | cell growth or viability |  |  | IC50 | 1690 nM |
| CCN(C(=O)c1cc(F)ccc1Oc1nncnc1N1CCC2(C1)CN([C@H](CCCN(C)CCOC)C(C)C)C2)C(C)C | cell growth or viability | 72 h |  | GI50 | > 10000 nM |
| CN(C)CCN1CCN(c2ccc3nc(-c4ccc5nc(-c6ccc(C(F)(F)F)cc6)[nH]c5c4)[nH]c3c2)CC1 | SRB | 10 µM, 48 h |  | growth percent | 42.7% |
| Cc1cccc(-c2cccc(C)n2)n1.Cc1cccc(-c2cccc(C)n2)n1.F[P-](F)(F)(F)(F)F.F[P-](F)(F)(F)(F)F.[Ru+2].c1ccc2c(c1)Cc1cc(-c3nc4c5cccnc5c5ncccc5c4[nH]3)ccc1-2 | cell viability | normoxia, added: blue light 453 nm, 100 J/cm2 |  | EC50 | 3330 ± 160 nM |
| [Cl-].[Cl-].[Ru+2].c1ccc(-c2ccccn2)nc1.c1ccc(-c2ccccn2)nc1.c1ccc2cc3nc4c5cccnc5c5ncccc5c4nc3cc2c1 |  | visible light, oxygen 1% | baseline: dark EC50 over light EC50 | phototherapeutic index | 1 |
| Cc1ccnc(-c2cc(C)ccn2)c1.Cc1ccnc(-c2cc(C)ccn2)c1.F[P-](F)(F)(F)(F)F.[Ru+2].[c-]1cccc2c1c1ncccc1c1[nH]c(-c3ccc(-c4cccs4)s3)nc21 | cell viability, Alamar Blue | dark |  | EC50 | 350 to 500 nM |
| Cc1cccc(-c2cccc(C)n2)n1.Cc1cccc(-c2cccc(C)n2)n1.F[P-](F)(F)(F)(F)F.F[P-](F)(F)(F)(F)F.[Ru+2].c1cc2ccc3ccc(-c4nc5c6cccnc6c6ncccc6c5[nH]4)c4ccc(c1)c2c34 | cell viability | dark, 1% O2 |  | EC50 | 59700 ± 500 nM |
| [Cl-].[Cl-].[Ru+2].c1cnc2c(c1)ccc1cccnc12.c1cnc2c(c1)ccc1cccnc12.c1csc(-c2ccc(-c3nc4c5cccnc5c5ncccc5c4[nH]3)s2)c1 |  | normoxia, added: visible light 400-700 nm, 100 J/cm2 |  | EC50 | ~600 nM |

Some of these lines once more:
| Structure (SMILES) | test | setting | scale | quantity | value |
| --- | --- | --- | --- | --- | --- |
| Cc1cccc(-c2cccc(C)n2)n1.Cc1cccc(-c2cccc(C)n2)n1.F[P-](F)(F)(F)(F)F.F[P-](F)(F)(F)(F)F.[Ru+2].c1cc2ccc3ccc(-c4nc5c6cccnc6c6ncccc6c5[nH]4)c4ccc(c1)c2c34 | cell viability | dark, 1% O2 |  | EC50 | 59700 ± 500 nM |
